# Literature values as cited in several papers.
# Protocols differ between the studies behind these lines. Numbers after ± are the reported error.
# Cytosol aminopeptidase: Cytosol aminopeptidase (Sus scrofa, UniProt P28839)
# UniProt P28839, sequence (whole entry, looked up): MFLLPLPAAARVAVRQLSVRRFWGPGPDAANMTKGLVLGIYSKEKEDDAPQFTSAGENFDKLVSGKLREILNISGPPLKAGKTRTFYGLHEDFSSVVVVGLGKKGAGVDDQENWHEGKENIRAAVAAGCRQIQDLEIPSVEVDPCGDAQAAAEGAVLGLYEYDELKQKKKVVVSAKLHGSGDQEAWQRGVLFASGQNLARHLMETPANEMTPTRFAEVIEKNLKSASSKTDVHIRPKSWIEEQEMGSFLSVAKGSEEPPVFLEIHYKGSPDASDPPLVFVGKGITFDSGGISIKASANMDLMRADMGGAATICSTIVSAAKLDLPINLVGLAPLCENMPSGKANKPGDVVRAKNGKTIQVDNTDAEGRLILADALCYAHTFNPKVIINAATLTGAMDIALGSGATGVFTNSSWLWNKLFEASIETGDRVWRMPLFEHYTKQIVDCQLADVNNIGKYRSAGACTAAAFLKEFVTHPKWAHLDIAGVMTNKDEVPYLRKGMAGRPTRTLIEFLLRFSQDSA
# UniProt P02718, sequence (whole entry, looked up): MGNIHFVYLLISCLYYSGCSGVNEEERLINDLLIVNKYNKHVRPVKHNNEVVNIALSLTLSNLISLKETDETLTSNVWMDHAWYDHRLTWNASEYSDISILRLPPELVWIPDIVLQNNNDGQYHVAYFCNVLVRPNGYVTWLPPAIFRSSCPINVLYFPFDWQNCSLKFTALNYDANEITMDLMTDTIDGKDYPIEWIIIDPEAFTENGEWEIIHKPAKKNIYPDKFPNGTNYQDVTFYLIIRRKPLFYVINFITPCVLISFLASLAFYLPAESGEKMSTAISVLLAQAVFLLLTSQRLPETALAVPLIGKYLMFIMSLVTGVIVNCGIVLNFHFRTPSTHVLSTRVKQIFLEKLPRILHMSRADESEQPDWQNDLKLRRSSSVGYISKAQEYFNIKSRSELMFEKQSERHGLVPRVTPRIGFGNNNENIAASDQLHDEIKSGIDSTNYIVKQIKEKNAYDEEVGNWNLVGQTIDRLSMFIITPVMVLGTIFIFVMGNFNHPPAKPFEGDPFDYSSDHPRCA
# UniProt P21917, sequence (whole entry, looked up): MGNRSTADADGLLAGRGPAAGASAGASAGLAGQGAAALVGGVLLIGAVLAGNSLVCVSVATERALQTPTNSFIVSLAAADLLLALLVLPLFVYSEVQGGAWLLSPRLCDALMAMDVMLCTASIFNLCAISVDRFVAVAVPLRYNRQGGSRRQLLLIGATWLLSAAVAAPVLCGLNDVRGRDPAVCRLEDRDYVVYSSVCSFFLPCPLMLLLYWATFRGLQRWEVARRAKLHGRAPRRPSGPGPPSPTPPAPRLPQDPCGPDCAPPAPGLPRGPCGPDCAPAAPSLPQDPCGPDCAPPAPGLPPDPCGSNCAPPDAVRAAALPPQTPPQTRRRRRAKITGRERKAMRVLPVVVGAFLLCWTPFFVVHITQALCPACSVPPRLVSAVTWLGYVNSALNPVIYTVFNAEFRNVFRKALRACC
# UniProt P94556, sequence (whole entry, looked up): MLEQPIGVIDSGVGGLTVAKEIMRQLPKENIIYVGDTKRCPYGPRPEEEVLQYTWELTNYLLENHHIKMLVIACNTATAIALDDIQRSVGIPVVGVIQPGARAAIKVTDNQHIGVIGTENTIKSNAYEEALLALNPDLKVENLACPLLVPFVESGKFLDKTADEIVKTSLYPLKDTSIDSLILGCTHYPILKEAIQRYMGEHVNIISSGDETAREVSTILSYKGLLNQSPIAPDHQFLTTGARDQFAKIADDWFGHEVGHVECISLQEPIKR
# UniProt P23921, sequence (whole entry, looked up): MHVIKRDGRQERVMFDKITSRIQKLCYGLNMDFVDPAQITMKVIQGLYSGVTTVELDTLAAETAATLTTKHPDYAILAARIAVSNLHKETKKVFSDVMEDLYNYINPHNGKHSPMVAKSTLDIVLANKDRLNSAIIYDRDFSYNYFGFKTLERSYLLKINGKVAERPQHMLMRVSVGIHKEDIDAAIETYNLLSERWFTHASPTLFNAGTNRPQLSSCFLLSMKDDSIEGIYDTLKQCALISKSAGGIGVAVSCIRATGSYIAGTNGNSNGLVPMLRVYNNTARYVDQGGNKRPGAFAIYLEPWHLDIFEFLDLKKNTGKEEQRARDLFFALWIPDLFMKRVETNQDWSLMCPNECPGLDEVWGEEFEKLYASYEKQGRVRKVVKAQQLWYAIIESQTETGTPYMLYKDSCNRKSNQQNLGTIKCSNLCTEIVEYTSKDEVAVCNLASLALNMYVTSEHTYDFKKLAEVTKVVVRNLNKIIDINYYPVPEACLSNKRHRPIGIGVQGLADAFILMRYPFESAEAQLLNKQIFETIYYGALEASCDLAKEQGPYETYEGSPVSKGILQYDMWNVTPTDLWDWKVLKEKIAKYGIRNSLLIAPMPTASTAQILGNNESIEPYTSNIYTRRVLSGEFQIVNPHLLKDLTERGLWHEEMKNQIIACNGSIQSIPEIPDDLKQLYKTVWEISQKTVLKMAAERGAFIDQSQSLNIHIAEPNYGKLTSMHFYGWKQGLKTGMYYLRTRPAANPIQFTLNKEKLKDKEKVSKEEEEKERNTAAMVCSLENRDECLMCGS
# UniProt P02710, sequence (whole entry, looked up): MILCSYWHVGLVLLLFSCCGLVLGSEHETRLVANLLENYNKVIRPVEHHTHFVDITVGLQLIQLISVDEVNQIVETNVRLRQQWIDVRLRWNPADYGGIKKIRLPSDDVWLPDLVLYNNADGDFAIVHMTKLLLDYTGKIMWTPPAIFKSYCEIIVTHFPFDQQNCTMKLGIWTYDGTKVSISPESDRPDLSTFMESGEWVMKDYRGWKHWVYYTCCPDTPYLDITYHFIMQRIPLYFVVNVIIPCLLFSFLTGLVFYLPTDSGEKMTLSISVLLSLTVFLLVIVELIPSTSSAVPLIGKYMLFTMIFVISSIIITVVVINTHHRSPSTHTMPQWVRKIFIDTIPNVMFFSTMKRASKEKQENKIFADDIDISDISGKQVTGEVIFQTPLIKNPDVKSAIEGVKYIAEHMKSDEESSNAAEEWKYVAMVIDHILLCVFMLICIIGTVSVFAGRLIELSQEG
# UniProt Q13126, sequence (whole entry, looked up): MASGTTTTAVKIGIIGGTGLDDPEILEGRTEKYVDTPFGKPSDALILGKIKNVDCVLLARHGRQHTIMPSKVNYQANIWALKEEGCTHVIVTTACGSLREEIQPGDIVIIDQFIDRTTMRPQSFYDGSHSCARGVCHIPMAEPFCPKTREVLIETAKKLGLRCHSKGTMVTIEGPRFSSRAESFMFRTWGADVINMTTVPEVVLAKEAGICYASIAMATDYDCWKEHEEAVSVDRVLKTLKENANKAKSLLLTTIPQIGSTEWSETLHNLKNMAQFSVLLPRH
# UniProt P21728, sequence (whole entry, looked up): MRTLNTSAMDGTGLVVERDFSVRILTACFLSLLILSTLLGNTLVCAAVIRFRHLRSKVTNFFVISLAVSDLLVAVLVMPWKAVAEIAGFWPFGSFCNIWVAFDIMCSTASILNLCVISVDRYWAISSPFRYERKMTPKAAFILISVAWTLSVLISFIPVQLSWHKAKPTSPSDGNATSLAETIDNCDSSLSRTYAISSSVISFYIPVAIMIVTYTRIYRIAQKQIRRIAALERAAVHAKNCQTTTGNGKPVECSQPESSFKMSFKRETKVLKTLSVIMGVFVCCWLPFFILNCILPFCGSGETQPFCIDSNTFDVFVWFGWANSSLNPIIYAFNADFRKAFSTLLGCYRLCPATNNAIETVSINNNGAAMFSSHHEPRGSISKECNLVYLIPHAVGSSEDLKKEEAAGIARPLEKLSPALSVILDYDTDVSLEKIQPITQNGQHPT
# UniProt Q60612, sequence (whole entry, looked up): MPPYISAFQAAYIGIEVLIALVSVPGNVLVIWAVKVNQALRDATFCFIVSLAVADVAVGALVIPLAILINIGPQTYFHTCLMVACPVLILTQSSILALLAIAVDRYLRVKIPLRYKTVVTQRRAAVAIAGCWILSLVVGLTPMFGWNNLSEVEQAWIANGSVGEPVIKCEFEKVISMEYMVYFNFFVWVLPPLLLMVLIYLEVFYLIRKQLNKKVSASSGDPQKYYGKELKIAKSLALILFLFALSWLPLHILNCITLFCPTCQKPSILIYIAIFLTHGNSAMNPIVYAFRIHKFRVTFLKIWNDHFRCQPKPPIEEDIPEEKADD
# UniProt O00748, sequence (whole entry, looked up): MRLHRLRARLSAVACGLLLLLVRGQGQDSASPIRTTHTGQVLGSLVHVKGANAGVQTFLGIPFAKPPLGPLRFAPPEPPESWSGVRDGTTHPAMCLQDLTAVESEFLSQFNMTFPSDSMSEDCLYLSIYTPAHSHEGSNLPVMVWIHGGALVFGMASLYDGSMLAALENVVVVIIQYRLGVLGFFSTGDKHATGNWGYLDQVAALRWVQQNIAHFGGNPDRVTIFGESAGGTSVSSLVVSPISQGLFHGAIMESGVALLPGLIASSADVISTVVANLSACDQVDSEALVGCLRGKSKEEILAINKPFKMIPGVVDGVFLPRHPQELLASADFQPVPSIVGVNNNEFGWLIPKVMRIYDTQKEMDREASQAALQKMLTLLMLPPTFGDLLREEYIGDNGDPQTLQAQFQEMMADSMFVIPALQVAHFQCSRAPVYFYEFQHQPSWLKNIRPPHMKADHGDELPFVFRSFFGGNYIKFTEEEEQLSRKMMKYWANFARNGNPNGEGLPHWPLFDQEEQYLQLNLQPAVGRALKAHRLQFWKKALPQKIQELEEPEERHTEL
# UniProt P33533, sequence (whole entry, looked up): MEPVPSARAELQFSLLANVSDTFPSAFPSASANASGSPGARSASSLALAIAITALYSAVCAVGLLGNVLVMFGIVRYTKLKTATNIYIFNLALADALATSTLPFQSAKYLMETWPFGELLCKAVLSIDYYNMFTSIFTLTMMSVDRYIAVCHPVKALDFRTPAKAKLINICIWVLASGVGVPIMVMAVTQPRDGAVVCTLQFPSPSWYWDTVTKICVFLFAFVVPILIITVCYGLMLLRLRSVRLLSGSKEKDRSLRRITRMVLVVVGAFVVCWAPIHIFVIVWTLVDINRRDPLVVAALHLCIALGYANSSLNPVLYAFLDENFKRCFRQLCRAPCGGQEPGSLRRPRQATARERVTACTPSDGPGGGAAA
Compound,target,assay,system,conditions,Ki
OC(Cn1cncn1)(Cn1cncn1)c1ccc(F)cc1F,"Cytochrome P450 3A5 (CYP3A5, Homo sapiens, UniProt P20815)",inhibitor,,together with: midazolam substrate,84.6 ± 12.9 µM
O=C(O)Cc1cn2nc(-c3ccc(Cl)cc3)ccc2n1,"GHB high-affinity site, rat",binding,rat cortical membranes,,0.22 µM
CCCNCC(N)P(=O)(O)O (stereo not drawn),Cytosol aminopeptidase,inhibitor,,,> 800 µM
Nc1nc(Cl)nc2c1ncn2[C@@H]1O[C@H](COP(=O)(O)OP(=O)(O)OP(=O)(O)O)[C@@H](O)[C@@H]1F,"Ribonucleoside-diphosphate reductase large subunit (Homo sapiens, UniProt P23921)","enzyme activity, inhibitor",,,0.04 µM
O=S(=O)(Nc1ccc(Oc2ccccc2)cc1)c1ccc(Br)cc1,"Cocaine esterase (CES2, Homo sapiens, UniProt O00748)",,,,> 100 µM
C[C@@H]1O[C@@H](O[C@H]2C[C@@H](O)[C@]3(CO)[C@H]4[C@H](O)C[C@]5(C)[C@@H](C6=CC(=O)OC6)CC[C@]5(O)[C@@H]4CC[C@]3(O)C2)[C@H](O)[C@H](O)[C@H]1O,Na+/K+-ATPase human recombinant,"enzyme activity, inhibitor",,,0.097 µM
Fc1ccc(C2(NCCCOC3CCCCO3)CC3CCC2C3)cc1 (stereo not drawn),dopamine transporter (DAT),"binding, competitive, radioligand binding",,,3.16 µM
O=C(c1ccc(F)cc1)C1CCN([C@@H]2Cc3ccccc3C[C@H]2O)CC1 (relative stereo),"Tmem97 (Rattus norvegicus, UniProt Q5U3Y7)",,rat liver membranes,,0.251 ± 0.0392 µM
N#Cc1c(N)nc(SCC(N)=O)c(C#N)c1-c1ccc(OCC2CC2)cc1,"Adenosine receptor A1 (Mus musculus, UniProt Q60612)","binding, antagonist",,mouse receptor,0.351 µM
C=C1C[C@H]2CC3(O)O[C@H](C[C@@H](O)CC(=O)O[C@@H]([C@@H](C)O)C[C@@H]4C/C(=C\C(=O)OC)[C@H](OC(=O)/C=C/C=C/CCC)[C@@](O)(O4)C(C)(C)/C=C/[C@@H](C1)O2)C[C@H](OC(C)=O)C3(C)C,"PRKCA (Homo sapiens, UniProt P17252)","binding, competitive",,,0.00052 ± 6e-05 µM
CC(C)[C@H](NC(=O)[C@H](CCC(=O)O)NC(=O)[C@H](Cc1ccccc1)NC(=O)[C@@H](C)NC(=O)[C@@H](N)Cc1ccc(O)cc1)C(=O)N[C@H](C(=O)NCC(N)=O)C(C)C,"Oprd1 (Rattus norvegicus, UniProt P33533)",binding,rat brain synaptosomes,,0.00012 µM
CN(C(=N)Nc1cccc2ccccc12)c1cccc(I)c1,NMDA receptor,radioligand binding,,together with: [3H]MK801,0.00465 µM
CN1C/C(=C\c2ccc(Cl)cc2Cl)C/C(=C\c2ccc(Cl)cc2Cl)C1,alpha7 nicotinic acetylcholine receptor,binding,,together with: [3H]methyllycaconitine,> 100 µM
CSC[C@H]1CN(Cc2c[nH]c3c(N)ncnc23)C[C@@H]1O,"MTAP (Homo sapiens, UniProt Q13126)",inhibitor,,,8.6e-05 µM
CC(C)CN(C[C@@H](O)[C@H](Cc1ccccc1)NC(=O)O[C@H]1CCOC1)S(=O)(=O)c1ccc(N)cc1,PR S17 variant,isothermal titration calorimetry,,,0.011 µM
CN1[C@@H](CCc2ccccc2)CCC[C@H]1CCc1ccccc1,alpha7 nicotinic acetylcholine receptor,binding,,together with: [3H]methyllycaconitine,43.1 µM
CN1[C@H]2CC[C@@H]1[C@@H](C(=O)N1CCCC1)[C@@H](c1ccc(I)cc1)C2,"Transporter (Slc6a2, Rattus norvegicus, UniProt Q63380)","reuptake, inhibitor",rat brain synaptosomes,,0.0195 ± 0.0006 µM
CCC[C@@]1(CCc2ccccc2)CC(O)=C([C@H](CC)c2cccc(NS(=O)(=O)c3ccc(C(F)(F)F)cn3)c2)C(=O)O1,HIV-1 protease wild type,,,,1.9e-05 µM
C=CCN(CC=C)CCc1c[nH]c2ccc(Br)cc12,"DRD4 (Homo sapiens, UniProt P21917)",,,,> 10 µM
COc1ccc(CC[C@H]2CCC[C@@H](CCc3ccc(OC)cc3)N2C[C@@H](O)CO)cc1 (relative stereo),alpha7 nicotinic acetylcholine receptor,binding,,together with: [3H]methyllycaconitine,> 100 µM
CNCC(N)P(=O)(O)O (stereo not drawn),Cytosol aminopeptidase,inhibitor,,,> 800 µM
C=C1CC[C@@H]2[C@@H](C1)c1c(OC)cc(C(C)(C)CCCCCC)cc1OC2(C)C,"CNR2 (Homo sapiens, UniProt P34972)",binding,,,0.0118 µM
CC=O,yeast alcohol dehydrogenase H44R,"inhibitor, product inhibition, slope constant",,"pH 7.3, 30 °C",1800 µM
O=c1c(-c2ccc3c(c2)OCO3)ccc2n1C[C@@H]1CNC[C@H]2C1,"CHRNA1/CHRNG/chrnd (Tetronarce californica, UniProt P02710+P02714+P02718)",,,,> 10 µM
O=S(=O)(O)c1ccc(O)c(S(=O)(=O)O)c1,"racE (Bacillus subtilis, UniProt P94556)",,,,58 ± 13 µM
CN1[C@@H](CC(=O)c2ccccc2)CCC[C@H]1C[C@H](O)c1ccccc1,"Slc6a3 (Rattus norvegicus, UniProt P23977)",inhibitor,,,31.6 µM
C=CCN(CC=C)CCc1c[nH]c2ccc(OC)cc12,"DRD1 (Homo sapiens, UniProt P21728)",,,,> 10 µM

# For quick reference, copied from above:
Compound,target,assay,system,conditions,Ki
Nc1nc(Cl)nc2c1ncn2[C@@H]1O[C@H](COP(=O)(O)OP(=O)(O)OP(=O)(O)O)[C@@H](O)[C@@H]1F,"Ribonucleoside-diphosphate reductase large subunit (Homo sapiens, UniProt P23921)","enzyme activity, inhibitor",,,0.04 µM
O=S(=O)(Nc1ccc(Oc2ccccc2)cc1)c1ccc(Br)cc1,"Cocaine esterase (CES2, Homo sapiens, UniProt O00748)",,,,> 100 µM
C[C@@H]1O[C@@H](O[C@H]2C[C@@H](O)[C@]3(CO)[C@H]4[C@H](O)C[C@]5(C)[C@@H](C6=CC(=O)OC6)CC[C@]5(O)[C@@H]4CC[C@]3(O)C2)[C@H](O)[C@H](O)[C@H]1O,Na+/K+-ATPase human recombinant,"enzyme activity, inhibitor",,,0.097 µM
Fc1ccc(C2(NCCCOC3CCCCO3)CC3CCC2C3)cc1 (stereo not drawn),dopamine transporter (DAT),"binding, competitive, radioligand binding",,,3.16 µM
